Published values from different studies.
Protocols differ between the studies behind these lines.
TDP1: Tyrosyl-DNA phosphodiesterase 1 (TDP1, Homo sapiens, UniProt Q9NUW8)
Sequence of UniProt Q9NUW8 (whole entry, looked up): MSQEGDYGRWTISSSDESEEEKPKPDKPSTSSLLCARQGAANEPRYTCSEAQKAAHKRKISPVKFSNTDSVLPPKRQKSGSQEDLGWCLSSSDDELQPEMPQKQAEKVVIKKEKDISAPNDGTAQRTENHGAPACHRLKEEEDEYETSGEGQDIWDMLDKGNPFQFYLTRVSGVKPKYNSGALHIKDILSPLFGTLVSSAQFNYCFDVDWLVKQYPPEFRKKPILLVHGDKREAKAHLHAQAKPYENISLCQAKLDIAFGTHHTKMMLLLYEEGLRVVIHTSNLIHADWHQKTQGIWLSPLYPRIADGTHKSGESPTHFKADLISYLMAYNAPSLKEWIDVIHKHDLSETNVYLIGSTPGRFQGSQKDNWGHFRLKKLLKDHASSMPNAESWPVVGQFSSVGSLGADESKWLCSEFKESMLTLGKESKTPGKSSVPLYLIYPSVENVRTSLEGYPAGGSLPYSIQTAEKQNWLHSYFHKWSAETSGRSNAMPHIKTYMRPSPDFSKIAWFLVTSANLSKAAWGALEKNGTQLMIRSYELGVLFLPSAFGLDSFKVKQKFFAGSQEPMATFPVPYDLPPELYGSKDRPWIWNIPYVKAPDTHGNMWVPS
LTK: Leukocyte tyrosine kinase receptor (LTK, Homo sapiens, UniProt P29376)
Sequence of UniProt P29376 (whole entry, looked up): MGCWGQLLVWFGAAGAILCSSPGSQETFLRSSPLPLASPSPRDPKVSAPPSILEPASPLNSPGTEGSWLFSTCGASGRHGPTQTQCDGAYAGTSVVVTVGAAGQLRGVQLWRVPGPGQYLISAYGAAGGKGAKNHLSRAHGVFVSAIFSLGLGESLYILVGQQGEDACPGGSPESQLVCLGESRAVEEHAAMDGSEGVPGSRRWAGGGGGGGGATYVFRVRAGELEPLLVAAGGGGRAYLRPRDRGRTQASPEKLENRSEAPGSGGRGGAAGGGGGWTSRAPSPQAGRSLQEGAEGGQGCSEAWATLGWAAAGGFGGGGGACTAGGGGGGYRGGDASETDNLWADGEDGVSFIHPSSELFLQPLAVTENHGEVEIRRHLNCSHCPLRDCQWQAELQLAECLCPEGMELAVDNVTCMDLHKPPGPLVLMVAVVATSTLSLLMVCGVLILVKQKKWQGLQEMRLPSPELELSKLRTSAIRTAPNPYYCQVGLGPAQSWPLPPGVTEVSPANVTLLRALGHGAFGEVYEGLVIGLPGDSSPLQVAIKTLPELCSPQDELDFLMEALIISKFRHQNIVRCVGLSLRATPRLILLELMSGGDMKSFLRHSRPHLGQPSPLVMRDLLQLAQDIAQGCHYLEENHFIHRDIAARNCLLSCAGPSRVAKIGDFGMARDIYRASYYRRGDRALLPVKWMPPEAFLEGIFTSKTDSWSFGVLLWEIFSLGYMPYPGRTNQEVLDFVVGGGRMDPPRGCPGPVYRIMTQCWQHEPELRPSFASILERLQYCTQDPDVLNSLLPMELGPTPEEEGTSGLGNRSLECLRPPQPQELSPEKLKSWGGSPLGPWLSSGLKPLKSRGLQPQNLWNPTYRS

SMILES	target	test	setting	how to read	measurement	result
COc1cc([N+](=O)[O-])ccc1C=NOCc1ccc(-c2nc3cc(-c4ccccc4)ccn3c2Nc2ccc(C(=O)O)cc2)cc1	TDP1	enzyme activity, inhibitor	100 µM, unpurified compound	–	inhibition	41.5%
O=C(Cc1ccc(OCc2ccccc2)cc1)NC1(C(=O)O)CCN(C(=O)c2ccc(-c3cccc(Cl)c3)cc2)CC1	LTK	enzyme activity, inhibitor	10 µM	–	activity vs control	89%
CS(=O)(=O)c1ccc(C=NOCc2ccc(-c3nc4cc(-c5ccccc5)ccn4c3Nc3ccc(C(=O)O)cc3)cc2)c(Cl)c1	TDP1	enzyme activity, inhibitor	100 µM, unpurified compound	–	inhibition	55.8%
Nc1ncc2c(n1)-c1c([nH]c3ccc(C4=CCOCC4)cc13)CCC2	LTK	binding, competition with immobilised ligand	1 µM	–	remaining binding	91%
C=CC(=O)Nc1cccc(-c2cnc3[nH]cc(C(=O)NC(C)(C)C)c3n2)c1	LTK	enzyme activity, inhibitor	0.1 µM	–	inhibition	3%
Cc1cccc(O[C@H]2CCC[C@@H](C(C)CNCc3ccncc3)C2)c1 (relative stereo)	LTK	cell-free assay	10 µM	–	inhibition	-3%
NC(=O)C[C@H]1CCc2sc3ncnc(O[C@H]4CC[C@H](N5CCOCC5)CC4)c3c21	LTK	enzyme activity, inhibitor	10 µM	–	inhibition	0%
CNC(=O)C1CCN(c2cc(C)c(F)cc2NC(=O)c2ccc(-c3cc(O)ccc3C)c(C)c2)CC1	LTK	binding, competition with immobilised ligand	1 µM	–	remaining binding	100%
Cc1ccc(-c2c(/C=C(\C#N)C(=O)NC(C)C)n(CCCO)c3ncnc(N)c23)cc1	LTK	cell-free assay, competition with immobilised ligand	1 µM	–	remaining binding	95%
CCN1CCN(Cc2ccc(C(=O)Nc3ccc(C)c(NCc4cnc5[nH]ccc5c4OC)c3)cc2C(F)(F)F)CC1	LTK	binding, competition with immobilised ligand	1 µM	–	remaining binding	74%
Nc1ncc(-c2cc(-c3cnn(CC(F)(F)F)c3)ncc2F)nc1C(=O)NC1CNCC(F)C1 (stereo not shown)	LTK	enzyme activity	1 µM	relative to: DMSO control	remaining activity	90.3%
Cc1cnc2nc1Nc1cccc(c1)COC/C=C/COCc1cc(ccc1OCCN1CCOCC1)N2	LTK	binding	0.1 µM	–	remaining binding	100%
C=CC(=O)N1CCCC(n2c(=O)c3ncccc3n(Cc3ccc(Oc4ccccc4)cc3)c2=O)C1 (stereo not shown)	LTK	cell-free assay, competition with immobilised ligand	1 µM	–	remaining binding	100%
C[C@H]1CN(C(=O)c2cn(-c3ccnc(N)n3)c3cc(C#CC4(O)CCCCC4)ccc23)CCN1	LTK	enzyme activity, inhibitor, FRET	1 µM	–	inhibition	9%
O=C(Nc1ccc(Oc2ncnc3[nH]cc(-c4ccccc4)c23)c(F)c1)c1c2n(n(-c3cc(F)ccc3F)c1=O)CCCC2	LTK	enzyme activity, inhibitor	0.5 µM	–	inhibition	-8%
CC(C)=CC1OC(C)(C)C2C=C3C(=O)C(Cl)=CC(O)C3C3C(O)C4OC4C(=O)C132 (stereo not shown)	LTK	cell-free assay, competition with immobilised ligand	10 µM	–	remaining binding	94%

Excerpt of the above:
SMILES	target	test	setting	how to read	measurement	result
O=C(Cc1ccc(OCc2ccccc2)cc1)NC1(C(=O)O)CCN(C(=O)c2ccc(-c3cccc(Cl)c3)cc2)CC1	LTK	enzyme activity, inhibitor	10 µM	–	activity vs control	89%
NC(=O)C[C@H]1CCc2sc3ncnc(O[C@H]4CC[C@H](N5CCOCC5)CC4)c3c21	LTK	enzyme activity, inhibitor	10 µM	–	inhibition	0%
